Results collected from several papers.
Each numbered part is a random draw from the data of one study; scales do not carry over between parts. Positions count from the first letter of the parent shown.

Set 1
Target: Fragile X messenger ribonucleoprotein 1, C-terminal low-complexity region (Fmr1, Mus musculus, UniProt P35922)
Method: RNA Bind-n-Seq
Molecule type: RNA
Matrix: in vitro
Tested at: 200 nM
Setting: whole 134-nt RNA, ends assumed
With: 150 mM LiCl
Reference: input library
Reading: higher = stronger binding
Quantity: log2 enrichment
Library: 7-deaza-guanosine replaces G
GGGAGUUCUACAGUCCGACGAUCUGGCCCUGGUGGCAUGCGGGGAGGAAGAGGUGGCCUCAUGGAUCGUGGUGGUCCCGGUGGAAUGUUCAGAGGUGGCCGUCGUGGAGACAGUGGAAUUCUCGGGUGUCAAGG: -1.15
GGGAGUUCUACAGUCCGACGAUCGUCCUGUGCUACACAUCGUAUGUACCGAAUCGGGGAAAAAGGGGAGGGGAAAAAGGGGAAAGUAUUAUGUUACGCCGUUCGGAUCUGCACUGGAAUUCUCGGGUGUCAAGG: 0.883
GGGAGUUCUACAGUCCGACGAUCUGGCCCUGGUGGCAUGCGGGGAGGAAGAGGUGGCCUCAUGGAUCGUGGUGGUCCCGGUGGAAUGUUCAGAGGUGGCCGUGGUGUAGACAGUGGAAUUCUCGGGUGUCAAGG: -1.1
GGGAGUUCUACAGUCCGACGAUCCUCAAGUCCUGUGCUACACAUCGUAUGUACCGAAUCGGGGAGGGGAGGGAGGGGAAAGUAUUAUGUUACGCCGUUCGGAUCUGCACUUCCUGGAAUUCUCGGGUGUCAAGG: -0.174
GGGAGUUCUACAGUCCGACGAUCUAACUUUAGAGGAUGAUCUGAUGGAUAUGGCAGUGGACGUGGAUUUGGGGAUGGCUAUAAUGGGUAUGGAGGAGGACCUGGAGGUGGCAAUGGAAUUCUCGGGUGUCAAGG: 0.45
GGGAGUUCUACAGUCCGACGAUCCACAGACAACACGCACCCACACAGACACAGAGGGAAGGGGAAAGGAUGGGGACAGGGUGCACAGCAGGGCGGGGUAGGACCCCAGCCCCUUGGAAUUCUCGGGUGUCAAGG: -0.67
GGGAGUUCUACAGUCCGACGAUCUCCUGUGCUACACAUCGUAUGUACCGAAUCAAAUUUUUUUAAAUUUAAAUUUUUUUAAAAAAGUAUUAUGUUACGCCGUUCGGAUCUGCAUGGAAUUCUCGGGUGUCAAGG: -2.4
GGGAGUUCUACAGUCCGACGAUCACCAUGCAGGUGGGCAUCUUUGGGAAGUGGGGCAAGGGGGGGAUAGGGAGGGGGGUAACACUUUGGGAACACGUGGUCCCAGGUCGUUUCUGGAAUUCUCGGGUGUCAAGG: 1.09

Set 2
Target: Centromere-binding protein 1, full length, His-tagged (CBF1, Saccharomyces cerevisiae, UniProt P17106, residues 1-351)
Chain of UniProt P17106 (whole entry, looked up): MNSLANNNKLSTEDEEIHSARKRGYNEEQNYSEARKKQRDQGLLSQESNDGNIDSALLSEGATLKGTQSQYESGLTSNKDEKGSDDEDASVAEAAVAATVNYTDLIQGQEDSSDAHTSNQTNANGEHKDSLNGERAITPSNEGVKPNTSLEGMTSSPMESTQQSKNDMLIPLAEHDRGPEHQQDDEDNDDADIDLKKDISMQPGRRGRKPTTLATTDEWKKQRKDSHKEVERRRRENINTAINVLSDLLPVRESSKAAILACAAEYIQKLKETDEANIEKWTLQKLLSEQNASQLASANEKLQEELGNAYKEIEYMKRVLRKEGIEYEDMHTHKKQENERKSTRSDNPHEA
Method: competition protein-binding microarray
Molecule type: double-stranded DNA, one strand shown
Matrix: in vitro
Tested at: 2 µM
Setting: whole 60-bp probe, lowest competitor level
With: Pho4 competitor, 0.05 µM
Reading: higher = stronger binding
Quantity: fluorescence intensity
CGATCTTGATGTTGTCCCGTGCCAGGTTGTATAATAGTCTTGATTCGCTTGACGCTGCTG: 243 a.u.
CAGCAAGTGTCCCAGCATGTGATGCTCACCAATCAGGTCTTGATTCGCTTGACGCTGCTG: 349 a.u.
GACCAGTGGCCCCGTCACAATATTCTCGGAAGCTAAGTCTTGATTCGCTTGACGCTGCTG: 56.9 a.u.
CATACCCAACCTTGCCGTGTGGGTGAAGATATTTGTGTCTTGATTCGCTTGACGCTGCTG: 56.4 a.u.
CAATGTTTTTAAAAGCACGTGACTCGAATGTTACCCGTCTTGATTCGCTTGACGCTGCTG: 20400 a.u.
AAATTACTAAGTTTTCACGTGCATTACCCCGTATGAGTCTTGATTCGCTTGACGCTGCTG: 1400 a.u.

Set 3
Target: CCNE2, cyclin fold, Cln2 fusion (human)
Method: yeast growth competition, sequencing
Matrix: yeast
Setting: weak parent motif
Reference: not given
Reading: higher = stronger binding
Quantity: normalised enrichment score
Parent: RB1 docking peptide (human); PKPLKKLRFDIEG; partner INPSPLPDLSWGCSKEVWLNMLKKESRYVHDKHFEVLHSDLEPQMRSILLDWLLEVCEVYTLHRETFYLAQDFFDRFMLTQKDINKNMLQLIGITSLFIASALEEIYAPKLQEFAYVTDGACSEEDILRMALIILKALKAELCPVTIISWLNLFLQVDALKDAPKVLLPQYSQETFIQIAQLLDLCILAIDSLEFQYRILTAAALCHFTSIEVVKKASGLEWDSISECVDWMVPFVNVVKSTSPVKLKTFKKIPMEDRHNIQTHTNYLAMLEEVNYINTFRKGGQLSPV
PKPLKELRFDIEG [K6E]: -0.327
PKPLKKCRFDIEG [L7C]: 1.09
PKPAKKLRFDIEG [L4A]: 0.645
PKPCKKLRFDIEG [L4C]: 0.887
PKPLKKLRFAIEG [D10A]: 1.29
PKPLTKLRFDIEG [K5T]: 0.951
PKPLKKLRFDSEG [I11S]: 0.67
PSPLKKLRFDIEG [K2S]: 0.979

Other studies, line by line
PhoQ, residues 284 288 289 292 302 303 AGHLVA — fold induction (PhoP, residues 12 14 15 18 19 SMASL (Escherichia coli, UniProt P23836); Sort-seq, item: YFP reporter; E. coli; PhoQ-PhoP variant library, with: 10 µM Mg2+; reference: high Mg2+ state, higher = stronger signaling): 3.85

For quick reference, copied from above (set 3):
PKPLKELRFDIEG [K6E]: -0.327
PKPLKKCRFDIEG [L7C]: 1.09
PKPAKKLRFDIEG [L4A]: 0.645
